Measurements from different studies.
A part holds a random share of what one study measured.
Chain of UniProt Q02763 (whole entry, looked up): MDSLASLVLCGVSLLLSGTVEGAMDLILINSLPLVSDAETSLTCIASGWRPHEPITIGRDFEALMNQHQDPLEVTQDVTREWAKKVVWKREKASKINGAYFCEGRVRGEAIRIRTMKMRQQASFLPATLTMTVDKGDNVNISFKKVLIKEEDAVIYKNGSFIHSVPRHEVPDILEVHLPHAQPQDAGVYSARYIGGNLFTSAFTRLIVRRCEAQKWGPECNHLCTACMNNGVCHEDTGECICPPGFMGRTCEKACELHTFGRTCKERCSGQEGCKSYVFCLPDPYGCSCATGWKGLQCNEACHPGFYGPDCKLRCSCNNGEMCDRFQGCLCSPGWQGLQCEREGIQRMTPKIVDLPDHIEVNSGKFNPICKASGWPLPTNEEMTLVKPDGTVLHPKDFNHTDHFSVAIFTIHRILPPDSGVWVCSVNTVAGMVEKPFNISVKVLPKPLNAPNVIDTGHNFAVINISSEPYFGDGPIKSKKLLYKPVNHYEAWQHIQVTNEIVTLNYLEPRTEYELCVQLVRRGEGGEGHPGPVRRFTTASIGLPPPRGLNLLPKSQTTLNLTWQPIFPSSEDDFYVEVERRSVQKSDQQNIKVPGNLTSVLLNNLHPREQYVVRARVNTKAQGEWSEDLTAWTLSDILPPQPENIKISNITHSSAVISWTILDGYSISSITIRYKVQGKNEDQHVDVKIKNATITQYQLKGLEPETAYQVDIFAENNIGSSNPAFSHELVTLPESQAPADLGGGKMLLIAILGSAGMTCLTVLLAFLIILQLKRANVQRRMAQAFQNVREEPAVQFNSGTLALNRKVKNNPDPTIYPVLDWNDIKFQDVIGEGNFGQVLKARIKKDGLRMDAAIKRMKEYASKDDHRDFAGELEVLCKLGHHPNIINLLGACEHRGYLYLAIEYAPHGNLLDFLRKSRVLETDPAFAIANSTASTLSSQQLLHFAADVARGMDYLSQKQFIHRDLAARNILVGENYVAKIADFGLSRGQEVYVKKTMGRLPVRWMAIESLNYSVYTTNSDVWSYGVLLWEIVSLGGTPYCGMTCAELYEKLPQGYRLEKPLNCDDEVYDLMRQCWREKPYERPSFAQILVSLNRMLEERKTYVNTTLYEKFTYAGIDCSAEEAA
Chain of UniProt P42684 (whole entry, looked up): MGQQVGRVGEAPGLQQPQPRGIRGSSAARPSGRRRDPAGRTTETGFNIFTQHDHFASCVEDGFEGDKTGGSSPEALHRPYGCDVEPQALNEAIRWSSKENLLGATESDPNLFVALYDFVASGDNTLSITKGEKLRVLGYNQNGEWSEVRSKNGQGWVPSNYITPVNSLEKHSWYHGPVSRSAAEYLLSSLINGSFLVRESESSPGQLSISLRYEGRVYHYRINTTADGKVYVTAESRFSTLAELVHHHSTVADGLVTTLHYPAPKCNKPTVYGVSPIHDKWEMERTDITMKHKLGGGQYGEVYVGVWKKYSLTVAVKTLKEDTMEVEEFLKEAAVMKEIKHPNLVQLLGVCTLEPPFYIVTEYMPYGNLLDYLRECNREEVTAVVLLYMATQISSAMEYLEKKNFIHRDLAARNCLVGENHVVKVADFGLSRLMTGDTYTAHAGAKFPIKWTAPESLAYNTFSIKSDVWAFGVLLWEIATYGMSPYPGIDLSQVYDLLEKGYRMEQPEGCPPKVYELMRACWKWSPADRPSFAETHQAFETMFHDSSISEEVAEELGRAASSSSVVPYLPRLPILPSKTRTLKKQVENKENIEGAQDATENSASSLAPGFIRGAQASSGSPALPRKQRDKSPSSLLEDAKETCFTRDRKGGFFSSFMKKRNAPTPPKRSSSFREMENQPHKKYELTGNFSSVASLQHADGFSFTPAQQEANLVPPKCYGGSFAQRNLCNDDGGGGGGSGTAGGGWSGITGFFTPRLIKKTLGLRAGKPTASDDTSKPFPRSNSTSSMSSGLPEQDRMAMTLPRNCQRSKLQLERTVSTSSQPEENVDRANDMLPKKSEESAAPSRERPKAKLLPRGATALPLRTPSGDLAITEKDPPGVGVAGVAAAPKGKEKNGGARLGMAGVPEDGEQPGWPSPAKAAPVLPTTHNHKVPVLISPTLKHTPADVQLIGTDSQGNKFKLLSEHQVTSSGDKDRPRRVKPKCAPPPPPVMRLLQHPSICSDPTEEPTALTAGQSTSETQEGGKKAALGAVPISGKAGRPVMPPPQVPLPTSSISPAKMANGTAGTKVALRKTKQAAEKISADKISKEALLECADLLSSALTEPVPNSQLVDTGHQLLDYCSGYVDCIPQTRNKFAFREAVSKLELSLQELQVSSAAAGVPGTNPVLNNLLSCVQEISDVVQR
Chain of UniProt P27361 (whole entry, looked up): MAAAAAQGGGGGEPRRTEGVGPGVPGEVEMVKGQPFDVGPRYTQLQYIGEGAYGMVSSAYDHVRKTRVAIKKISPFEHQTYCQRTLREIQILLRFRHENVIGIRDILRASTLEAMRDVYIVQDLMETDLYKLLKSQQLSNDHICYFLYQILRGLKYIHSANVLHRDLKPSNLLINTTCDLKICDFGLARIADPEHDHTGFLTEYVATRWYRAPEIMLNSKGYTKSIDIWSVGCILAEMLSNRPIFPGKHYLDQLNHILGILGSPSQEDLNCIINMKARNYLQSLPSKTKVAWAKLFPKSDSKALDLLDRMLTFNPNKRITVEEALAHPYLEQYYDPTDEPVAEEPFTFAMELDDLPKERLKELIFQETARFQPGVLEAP
Chain of UniProt Q04912 (whole entry, looked up): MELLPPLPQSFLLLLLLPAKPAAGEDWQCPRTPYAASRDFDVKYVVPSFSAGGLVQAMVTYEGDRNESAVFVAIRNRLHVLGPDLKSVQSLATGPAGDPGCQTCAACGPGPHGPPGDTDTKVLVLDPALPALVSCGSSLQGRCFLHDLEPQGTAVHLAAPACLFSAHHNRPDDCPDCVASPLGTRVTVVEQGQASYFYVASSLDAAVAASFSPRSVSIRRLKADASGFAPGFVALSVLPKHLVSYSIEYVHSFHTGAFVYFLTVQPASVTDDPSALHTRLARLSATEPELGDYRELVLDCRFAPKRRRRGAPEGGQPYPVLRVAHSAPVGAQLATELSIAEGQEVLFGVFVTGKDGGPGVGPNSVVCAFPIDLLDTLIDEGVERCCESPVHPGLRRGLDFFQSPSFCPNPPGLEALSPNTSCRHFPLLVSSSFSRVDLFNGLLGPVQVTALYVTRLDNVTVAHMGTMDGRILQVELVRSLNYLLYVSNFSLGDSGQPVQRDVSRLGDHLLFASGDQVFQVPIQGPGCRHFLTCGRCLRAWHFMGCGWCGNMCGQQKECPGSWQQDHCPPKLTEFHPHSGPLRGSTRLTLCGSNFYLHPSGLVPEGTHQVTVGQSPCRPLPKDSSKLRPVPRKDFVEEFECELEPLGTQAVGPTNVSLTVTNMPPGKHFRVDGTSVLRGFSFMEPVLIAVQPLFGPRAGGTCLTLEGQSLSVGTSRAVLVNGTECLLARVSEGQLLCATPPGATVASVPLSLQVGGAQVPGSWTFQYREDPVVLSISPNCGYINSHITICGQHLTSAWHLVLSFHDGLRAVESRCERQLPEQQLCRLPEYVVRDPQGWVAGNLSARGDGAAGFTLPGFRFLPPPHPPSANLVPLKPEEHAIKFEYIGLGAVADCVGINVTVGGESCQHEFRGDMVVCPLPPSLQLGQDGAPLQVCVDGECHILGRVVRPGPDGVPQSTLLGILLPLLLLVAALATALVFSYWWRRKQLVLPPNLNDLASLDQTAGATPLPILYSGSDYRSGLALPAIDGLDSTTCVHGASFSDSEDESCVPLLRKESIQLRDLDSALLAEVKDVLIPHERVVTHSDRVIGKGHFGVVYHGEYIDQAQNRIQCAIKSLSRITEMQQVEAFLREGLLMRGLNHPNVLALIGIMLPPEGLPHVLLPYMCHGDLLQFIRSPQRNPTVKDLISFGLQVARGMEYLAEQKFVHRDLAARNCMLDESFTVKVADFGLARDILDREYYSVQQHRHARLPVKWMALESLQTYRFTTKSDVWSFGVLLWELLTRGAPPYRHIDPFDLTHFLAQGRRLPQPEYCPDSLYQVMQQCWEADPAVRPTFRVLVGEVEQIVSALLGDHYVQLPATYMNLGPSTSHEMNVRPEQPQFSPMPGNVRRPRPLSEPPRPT
Chain of UniProt P31152 (whole entry, looked up): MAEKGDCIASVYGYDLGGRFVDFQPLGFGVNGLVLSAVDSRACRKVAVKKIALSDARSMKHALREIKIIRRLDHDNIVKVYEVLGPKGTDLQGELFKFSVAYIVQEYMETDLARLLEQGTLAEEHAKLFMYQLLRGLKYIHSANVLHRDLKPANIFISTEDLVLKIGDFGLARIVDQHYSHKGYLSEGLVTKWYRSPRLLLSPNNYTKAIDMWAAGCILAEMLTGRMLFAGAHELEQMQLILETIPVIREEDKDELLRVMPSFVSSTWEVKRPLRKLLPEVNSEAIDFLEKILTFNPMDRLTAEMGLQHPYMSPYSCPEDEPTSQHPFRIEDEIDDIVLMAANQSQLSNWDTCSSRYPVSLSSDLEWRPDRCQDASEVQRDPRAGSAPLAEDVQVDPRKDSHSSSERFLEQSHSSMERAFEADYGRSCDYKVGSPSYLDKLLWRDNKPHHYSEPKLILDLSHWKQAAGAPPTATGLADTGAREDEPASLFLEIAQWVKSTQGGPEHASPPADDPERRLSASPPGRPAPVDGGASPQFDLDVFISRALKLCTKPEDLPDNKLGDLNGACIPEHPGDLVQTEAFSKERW
Chain of UniProt Q9HC98 (whole entry, looked up): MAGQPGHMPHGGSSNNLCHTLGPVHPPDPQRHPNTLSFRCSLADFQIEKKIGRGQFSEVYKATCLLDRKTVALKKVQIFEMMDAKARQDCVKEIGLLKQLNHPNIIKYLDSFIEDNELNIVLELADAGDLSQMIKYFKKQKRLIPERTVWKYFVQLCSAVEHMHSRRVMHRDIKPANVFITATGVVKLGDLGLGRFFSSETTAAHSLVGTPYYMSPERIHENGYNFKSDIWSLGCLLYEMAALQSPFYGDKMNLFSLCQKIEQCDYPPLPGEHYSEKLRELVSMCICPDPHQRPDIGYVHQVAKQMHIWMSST

Set 1
SMILES: CC(C)(O)c1cncc(-c2nc3ccc(F)cc3n2C2CC2)c1
Observed: cell-free assay
Technique: competition with immobilised ligand
Tested at: 1 µM
| target | remaining binding [%] |
| --- | --- |
| Ephrin type-A receptor 2 (EPHA2, Homo sapiens, UniProt P29317) | 100 |
| Mitogen-activated protein kinase 4 (MAPK4, Homo sapiens, UniProt P31152) | 100 |
| Angiopoietin-1 receptor (TEK, Homo sapiens, UniProt Q02763) | 93 |
| Focal adhesion kinase 1 (PTK2, Homo sapiens, UniProt Q05397) | 100 |
| Ephrin type-B receptor 6 (EPHB6, Homo sapiens, UniProt O15197) | 100 |

Set 2
SMILES: C[C@@H](N)[C@H]1CC[C@H](C(=O)Nc2ccncc2)CC1
Observed: enzyme activity
Action: inhibitor
Tested at: 0.5 µM
Baseline: control
| target | remaining activity [%] |
| --- | --- |
| Activin receptor type-1B (ACVR1B, Homo sapiens, UniProt P36896) | 99.6 |
| Mitogen-activated protein kinase kinase kinase 14 (MAP3K14, Homo sapiens, UniProt Q99558) | 109 |
| Casein kinase I isoform gamma-3 (CSNK1G3, Homo sapiens, UniProt Q9Y6M4) | 98.5 |
| Rhodopsin kinase GRK7 (GRK7, Homo sapiens, UniProt Q8WTQ7) | 88.1 |
| Serine/threonine-protein kinase ULK2 (ULK2, Homo sapiens, UniProt Q8IYT8) | 102 |
| Mitogen-activated protein kinase kinase kinase 5 (MAP3K5, Homo sapiens, UniProt Q99683) | 105 |
| Serine/threonine-protein kinase Nek1 (NEK1, Homo sapiens, UniProt Q96PY6) | 109 |
| Glycogen synthase kinase-3 beta (GSK3B, Homo sapiens, UniProt P49841) | 102 |
| Serine/threonine-protein kinase Nek6 (NEK6, Homo sapiens, UniProt Q9HC98) | 94.7 |
| Mitogen-activated protein kinase 3 (MAPK3, Homo sapiens, UniProt P27361) | 98 |
| Tyrosine-protein kinase FRK (FRK, Homo sapiens, UniProt P42685) | 95.9 |
| Angiopoietin-1 receptor (TEK, Homo sapiens, UniProt Q02763) | 99.6 |
| Fibroblast growth factor receptor 1 (FGFR1, Homo sapiens, UniProt P11362) | 92.1 |
| Tyrosine-protein kinase ABL2 (ABL2, Homo sapiens, UniProt P42684) | 94.6 |
| Wee1-like protein kinase (WEE1, Homo sapiens, UniProt P30291) | 111 |
| Serine/threonine-protein kinase ULK3 (ULK3, Homo sapiens, UniProt Q6PHR2) | 101 |
| Ephrin type-A receptor 3 (EPHA3, Homo sapiens, UniProt P29320) | 95.5 |
| Casein kinase I isoform gamma-2 (CSNK1G2, Homo sapiens, UniProt P78368) | 99.5 |
| Ribosomal protein S6 kinase alpha-2 (RPS6KA2, Homo sapiens, UniProt Q15349) | 71.5 |
| Fibroblast growth factor receptor 3 (FGFR3, Homo sapiens, UniProt P22607) | 101 |
| Macrophage-stimulating protein receptor (MST1R, Homo sapiens, UniProt Q04912) | 94.6 |

Set 3
Cell line: A-375
Tested at: 100 µM
Time: 18 h
| SMILES | viability |
| --- | --- |
| CS(=O)(=O)Nc1ccc([N+](=O)[O-])cc1Oc1ccccc1 | 90.3% |
| Cc1ncc([N+](=O)[O-])n1CC(C)O (stereo not shown) | 85.5% |
| O=C1CC[C@@H](C(=O)N2CSC[C@H]2C(=O)O)N1 | 88.1% |
| O=C(O)[C@H]1O[C@H](O)[C@H](O)[C@@H](O)[C@@H]1O | 94.9% |
| CC(C)NCC(O)COc1cccc2[nH]ccc12 (stereo not shown) | 89.4% |

Set 4
SMILES: CC(C)n1cnc(-c2ccc(F)cc2)c1-c1ncc(C(=O)Nc2ccc(N3CCN(C)CC3)cc2)[nH]1
Technique: Phase 2a trial
Host: idiopathic pulmonary fibrosis patients
| test | setting | patients with adverse events [%] |
| --- | --- | --- |
| measured: gamma-glutamyltransferase increased | dose not given, grade 1 maximum intensity, all arms | 0 |
| measured: muscular weakness | 30 mg once daily, grade 4 maximum intensity | 0 |
| measured: oral herpes | oral, dose not given, grade 5 maximum intensity, all arms | 0 |
| measured: eye disorders (SOC) | 60 mg once daily, grade 4 maximum intensity | 0 |

Set 5
Host: human
Matrix: microsomes or S9
Tested at: 2 µM
Time: 0.5 h
| Compound | remaining compound [%] |
| --- | --- |
| CC(C)(C)NC(=O)NC(=O)CN1CCCC1CN1CCCCC1 (stereo not shown) | 40.4 |
| COc1ccc(-c2noc(CC(=O)NCc3ccccc3)c2-c2ccc(OC)cc2)cc1 | 0.447 |
| O=C1C=C(N(Cc2ccc(Cl)nc2)C2COC2)CO1 | 90.2 |
| Cc1oc(C)c(C(=O)Nc2nnc(C)n2C)c1Br | 34.4 |

Set 6
Cell line: mouse MPNST tumor cells
Technique: high-content immunofluorescence imaging
Measured: nuclear SOX9
Tested at: 10 µM
Time: 12 h
Setting: mean of 2 replicates
Baseline: DMSO control
Reading: higher = more nuclear SOX9
| Structure (SMILES) | nuclear SOX9 intensity |
| --- | --- |
| CC(=O)OCC(=O)NCCCOc1cccc(CN2CCCCC2)c1 | 94.2 % of DMSO |
| Nc1ncnc2c1c(-c1cccc(OCc3ccccc3)c1)cn2C1CC(CN2CCCC2)C1 (stereo not shown) | 166 % of DMSO |
| COc1cc(NS(=O)(=O)c2ccc(N)cc2)nc(OC)n1 | 107 % of DMSO |

Mixed results
| SMILES | system | setting | measurement | value |
| --- | --- | --- | --- | --- |
| O=C1CCC(N2Cc3cc(C4CCN(Cc5ccccc5)CC4)ccc3C2=O)C(=O)N1 (stereo not shown) | ICR mouse, male, plasma | oral, 3.0 mg/kg | oral bioavailability | 57.2% |

For quick reference, copied from above (set 3):
| SMILES | viability |
| --- | --- |
| Cc1ncc([N+](=O)[O-])n1CC(C)O (stereo not shown) | 85.5% |
| CC(C)NCC(O)COc1cccc2[nH]ccc12 (stereo not shown) | 89.4% |
| CS(=O)(=O)Nc1ccc([N+](=O)[O-])cc1Oc1ccccc1 | 90.3% |
| O=C(O)[C@H]1O[C@H](O)[C@H](O)[C@@H](O)[C@@H]1O | 94.9% |
| O=C1CC[C@@H](C(=O)N2CSC[C@H]2C(=O)O)N1 | 88.1% |
